Results of several laboratories.
Each numbered part is a random draw from the data of one study; scales do not carry over between parts. Changes are numbered by the printed parent chain.
Chain of UniProt P42681 (whole entry, looked up): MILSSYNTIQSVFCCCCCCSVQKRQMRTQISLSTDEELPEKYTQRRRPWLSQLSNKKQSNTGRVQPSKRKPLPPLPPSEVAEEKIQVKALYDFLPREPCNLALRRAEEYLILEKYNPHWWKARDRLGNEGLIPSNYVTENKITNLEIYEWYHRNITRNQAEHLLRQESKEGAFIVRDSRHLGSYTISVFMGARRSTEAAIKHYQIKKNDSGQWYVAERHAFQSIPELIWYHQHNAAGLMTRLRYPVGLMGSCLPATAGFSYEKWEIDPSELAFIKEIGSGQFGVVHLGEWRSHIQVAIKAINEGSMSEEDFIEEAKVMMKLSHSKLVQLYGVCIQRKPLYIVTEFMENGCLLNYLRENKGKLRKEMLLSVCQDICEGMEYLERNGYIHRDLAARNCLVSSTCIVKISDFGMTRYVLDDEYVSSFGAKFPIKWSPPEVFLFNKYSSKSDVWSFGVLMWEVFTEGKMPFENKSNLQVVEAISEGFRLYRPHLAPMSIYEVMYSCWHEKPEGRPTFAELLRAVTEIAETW

Study 1 — technique: RNA Bind-n-Seq; molecule type: RNA; sample: in vitro; concentration: not given; setting: 4-mer, random 30-nt RNA, single round; with: RocA, ADP, phosphate; baseline: input library; direction: higher = stronger binding; quantity: 4-mer enrichment
Target: ATP-dependent RNA helicase DDX3X, helicase core (DDX3X, Homo sapiens, UniProt O00571, residues 132-607)
Chain of UniProt O00571 (132-607, looked up): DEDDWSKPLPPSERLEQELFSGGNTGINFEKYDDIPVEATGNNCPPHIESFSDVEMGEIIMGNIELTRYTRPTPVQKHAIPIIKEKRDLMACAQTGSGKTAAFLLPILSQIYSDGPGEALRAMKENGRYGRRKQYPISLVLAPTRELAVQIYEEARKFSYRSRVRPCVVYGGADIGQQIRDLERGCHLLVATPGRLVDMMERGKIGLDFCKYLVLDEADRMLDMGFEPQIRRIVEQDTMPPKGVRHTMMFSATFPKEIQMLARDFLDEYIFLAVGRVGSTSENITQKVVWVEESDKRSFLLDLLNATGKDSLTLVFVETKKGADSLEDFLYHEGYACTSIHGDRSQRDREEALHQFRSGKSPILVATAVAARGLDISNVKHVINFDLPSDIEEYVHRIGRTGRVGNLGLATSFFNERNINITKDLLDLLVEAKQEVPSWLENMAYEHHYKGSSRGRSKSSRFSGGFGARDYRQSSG
Strand = CACU; result = 0.656 fold
Strand = CGCC; result = 0.742 fold
Strand = GUCC; result = 0.892 fold
Strand = CCCA; result = 0.876 fold
Strand = UCAC; result = 0.673 fold
Strand = UACA; result = 0.729 fold
Strand = UCAA; result = 0.754 fold
Strand = CUAA; result = 0.763 fold

Study 2 — target: CCNE1, cyclin fold, Cln2 fusion (human); technique: yeast growth competition, sequencing; sample: yeast; setting: weak parent motif; baseline: not given; direction: higher = stronger binding; quantity: normalised enrichment score
Parent: MASTL docking peptide (human); PMIAKNLMCELDE
Change = PMIAKNLMCEYDE [L11Y]; result = -0.0269
Change = PAIAKNLMCELDE [M2A]; result = -0.217
Change = PGIAKNLMCELDE [M2G]; result = 0.306
Change = PMIAKNLMCELNE [D12N]; result = -0.0513
Change = PMIAKNLNCELDE [M8N]; result = -0.251
Change = PMIAKNLMCILDE [E10I]; result = 0.567
Change = PMIAKNLMCELSE [D12S]; result = -0.0127
Change = PMIAKNLCCELDE [M8C]; result = -0.246

Study 3 — technique: universal PBM; molecule type: double-stranded DNA, one strand shown; sample: in vitro; concentration: not given; direction: higher = stronger binding; quantity: E-score
Target: Sal-like protein 4, full length isoform B (SALL4, Homo sapiens, UniProt Q9UJQ4-2, residues 1-616)
Setting: 8-mer, flanks averaged, mean of replicates
Residues (chain): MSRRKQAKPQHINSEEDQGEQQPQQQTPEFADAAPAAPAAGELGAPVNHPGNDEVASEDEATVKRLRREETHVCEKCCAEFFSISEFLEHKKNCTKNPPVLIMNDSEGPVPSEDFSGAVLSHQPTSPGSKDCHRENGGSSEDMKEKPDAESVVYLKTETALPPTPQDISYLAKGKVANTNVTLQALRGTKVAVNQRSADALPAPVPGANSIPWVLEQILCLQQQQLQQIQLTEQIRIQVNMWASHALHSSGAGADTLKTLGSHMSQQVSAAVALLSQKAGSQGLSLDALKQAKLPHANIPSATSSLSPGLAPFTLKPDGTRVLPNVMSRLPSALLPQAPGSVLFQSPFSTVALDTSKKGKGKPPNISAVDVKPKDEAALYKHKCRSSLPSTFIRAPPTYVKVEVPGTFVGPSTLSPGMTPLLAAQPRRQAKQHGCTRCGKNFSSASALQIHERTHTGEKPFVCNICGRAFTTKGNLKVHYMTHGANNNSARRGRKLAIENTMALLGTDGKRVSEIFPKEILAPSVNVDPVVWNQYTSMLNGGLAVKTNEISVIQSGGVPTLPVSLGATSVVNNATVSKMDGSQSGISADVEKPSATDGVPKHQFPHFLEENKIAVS
Strand = AGCTTGAA; result = 0.00922
Strand = ATGGAAGC; result = -0.00259
Strand = AGATCGCT; result = -0.027
Strand = TCACATGA; result = 0.149
Strand = ATTCTCTG; result = 0.0294
Strand = CGGTACCG; result = -0.357
Strand = CTCTCCGC; result = -0.143
Strand = AATAGCCT; result = 0.0329

Single results of other studies
Structure (SMILES) = OCC(O)CCON=C1C(c2c(O)[nH]c3ccccc23)=Nc2ccccc21 (stereo not shown); target = Tyrosine-protein kinase TXK (TXK, Homo sapiens, UniProt P42681); test = enzyme activity, inhibitor; setting = 0.5 µM; scale = baseline: control; quantity = remaining activity; result = 25.6%
